Experimental data gathered from unrelated publications.
Each numbered part is a random draw from the data of one study; scales do not carry over between parts. Changes are numbered by the printed parent chain.

Sample 1
Target: CCND3, cyclin fold, Cln2 fusion (human)
Technique: yeast growth competition, sequencing
Matrix: yeast
Notes: weak parent motif
Baseline: not given
Reading: higher = stronger binding
Starting sequence: RBL1 docking peptide (human); GSAKRRLFGEDPP; partner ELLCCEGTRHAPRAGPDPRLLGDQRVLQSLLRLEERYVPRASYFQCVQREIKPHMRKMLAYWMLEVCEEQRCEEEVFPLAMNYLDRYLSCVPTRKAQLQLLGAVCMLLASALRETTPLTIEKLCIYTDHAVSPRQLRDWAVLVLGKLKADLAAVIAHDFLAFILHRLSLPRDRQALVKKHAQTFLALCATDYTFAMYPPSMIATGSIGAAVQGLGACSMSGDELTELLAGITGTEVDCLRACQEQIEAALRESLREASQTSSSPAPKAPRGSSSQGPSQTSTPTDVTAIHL
Substitution | normalised enrichment score
L7K | 0.168
P12G | 0.22
G1W | 0.142
P13E | 0.024
F8I | 0.155
A3M | 0.0951
G9F | 0.24
G1L | 0.18
L7G | 0.192
L7P | 0.138
G1H | 0.159

Sample 2
Target: Histone acetyltransferase KAT6A, winged helix 2, GST fusion (KAT6A, Homo sapiens, UniProt Q92794, residues 85-181)
Technique: protein binding microarray
Form: double-stranded DNA, one strand shown
Matrix: in vitro
Tested at: not given
Notes: 8-mer, flanks averaged, mean of 2 arrays, mostly near background
Baseline: not given
Reading: higher = stronger binding
Residues (chain): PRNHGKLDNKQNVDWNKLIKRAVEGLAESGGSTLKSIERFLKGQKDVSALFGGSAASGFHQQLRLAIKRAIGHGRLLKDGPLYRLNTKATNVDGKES
Oligonucleotide | E-score
ACAAGGGC | -0.0479
AAATACTC | -0.0523
CAAACGGA | 0.0371
AGCAGATC | 0.129
ATGGACGA | 0.111
CGTGTCAA | -0.00688
AGGGAAGG | -0.123
TTATATAA | 0.209
GGGAAACC | 0.18
AAATTCAA | 0.0262
AGTCAAGG | -0.114
TGTCCTAA | -0.128
TCCCTCCA | -0.0186

Sample 3
Target: RING finger protein unkempt homolog, zinc fingers 1-6, SBP tag (UNK, Homo sapiens, UniProt Q9C0B0, residues 30-357)
Chain of UniProt Q9C0B0 (30-357, looked up): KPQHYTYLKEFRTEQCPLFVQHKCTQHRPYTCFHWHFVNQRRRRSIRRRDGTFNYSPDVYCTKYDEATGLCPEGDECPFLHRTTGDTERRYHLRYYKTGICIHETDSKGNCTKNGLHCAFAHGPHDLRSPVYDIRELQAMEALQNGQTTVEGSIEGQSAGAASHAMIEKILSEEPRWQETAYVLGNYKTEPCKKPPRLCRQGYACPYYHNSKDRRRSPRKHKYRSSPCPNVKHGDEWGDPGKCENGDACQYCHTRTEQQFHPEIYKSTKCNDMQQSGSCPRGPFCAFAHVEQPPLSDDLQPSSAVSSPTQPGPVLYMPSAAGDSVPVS
Technique: RNA Bind-n-Seq
Form: RNA
Matrix: in vitro
Tested at: 100 nM
Notes: RNA with constant flanks, vertebrate orthologous sites, ends assumed
Baseline: input RNA pool
Reading: higher = stronger binding
Shared flanks, not repeated: GGGAGUUCUACAGUCCGACGAUC … CAACAGAGGAUUGAGCAUCA
Oligonucleotide | bound/input enrichment [ratio]
GUAUCUUGGUUUGGGGUAGAGGGGAGGGAGGGGCAGGGCUGUGGAAUCUCUCCGGUAUAUGGGUAGAUAAGUGGACCUAUGUGAACCUCUGGGGCAUCUGUUUUGGGGGGUGAGUAUGGG | 0.986
AUUGGAUGCAGUGUAACACUAUCCAAGGCAGUGACUUCAGCUUUAUAUACAUAUAAAAUAUAGUUUUAAAAUUAUUGACAUUUAUUUAAACUUUUAGAUUGGAUUGUUUGCUAUUGCUCU | 1.02
CAACUCAAUGGUUGAGGGUUCAGAACUCAAAAAGGUUCGCUCCAACUCUAGAAUUUACCAUAGGUAUUUUUUACUGGAUGCCGACAUGCAGAGCCUGAGGUGGGAACCAUCUAAAAAGGA | 0.187
UUCACUAUCUGACUCGGGUGGAGGUUACAGAGUUUGAAGACAUAAAAUCGGGUUACAGAAUAGAUUUUUAUUUUGAUGAAAAUCCCUACUUCGAAAACAAAGUUCUCUCUAAAGAAUUCC | 0.335
GUGACUUUGGAAGUCCGCUCAUCAUCUGUGCAGAGUCUAGCCGGUUCCGGGCCUUGCAGUAUUGUUUUUCUUUGCUGGACCCGAGACCUCUGUUGCAACCAUGCUCCGCCAGAUCGUCGG | 0.467
UGUUCAGUCCCCUGGGCAGGGACAAGUUUUUUUAAUGUCUUGGAACAAACUCUGUGCUUGUAGGAAACGGCAACUUUUUUUUUCUUUUUCUUUUUUUAAAGCCAAACGUCCACCCACCCU | 1.02
AUUCAAACCUGUGGUACCAUGGCCUCAUGUUGAAGGAGUAGAAGUGGACUUAGAGUCUAUUAGAAGAAAAAACAAAGCCAAAAAUGAACAGGAGCGCCAUGCUGGAGGAGAUUCCCAGAG | 0.418
CUCAUUUCCAGGUUGGCUCUAGUGGAAAAGUCAUAGGAAUUGACCACAUUAAAGAGCUAGUAGAAGACUCAGUAAAUAAUGUCAGAAAGGACGAUCCACUGCUUUUGUCUUCAGGGAGAG | 0.391
CAAUUCCAUGGUCGAAGGCUCUGAGCUCAAGAAGGUCCGCUCCAAUUCUAGAAUUUACCACCGGUAUUUUCUCUUGGACGCCGACAUGCAGUCCCUGCGAUGGGAACCCUCCAAGAAGGA | 0.115
CAUAAUCACUCUAAUUGUAAUCUGAAUAAAGUGUAACAUUGUGUAGCCUUUUGUAUAAAAUAGACAAAUAGAAAUGGUCCAAUUAGUUUCCUUUUUAAUAUGCUUAAAAUAAGCAGGUGG | 1.71
ACCCUGUGCUCCAACUGUAGGAAUUGAUUGGCUUCUUGUAUUCUCUGUGAUCUAUGUCACCAUUUUUAUUGUAUAUGCCACUAUGCAGACGGAAAGUAUUCGUUGGCUUAUUCCUGGGCA | 0.423

Other studies, line by line
Substance | target | assay | system | setting | scale | quantity | value
PhoQ, residues 284 288 289 292 302 303 NLMGRA | PhoP, residues 12 14 15 18 19 VQALL (Escherichia coli, UniProt P23836) | Sort-seq, item: YFP reporter | E. coli | PhoQ-PhoP variant library, together with: 10 µM Mg2+ | baseline: high Mg2+ state, higher = stronger signaling | fold induction | 11

A few entries again (sample 2):
Oligonucleotide | E-score
CAAACGGA | 0.0371
AGCAGATC | 0.129
ATGGACGA | 0.111
